Published values from different studies.
A part holds a random share of what one study measured. Changes are numbered by the printed parent chain.

Study 1
Target: Protein C-ets-1 (ETS1, Homo sapiens, UniProt P14921, residues 1-441, full length assumed)
Sequence of UniProt P14921 (whole entry, looked up): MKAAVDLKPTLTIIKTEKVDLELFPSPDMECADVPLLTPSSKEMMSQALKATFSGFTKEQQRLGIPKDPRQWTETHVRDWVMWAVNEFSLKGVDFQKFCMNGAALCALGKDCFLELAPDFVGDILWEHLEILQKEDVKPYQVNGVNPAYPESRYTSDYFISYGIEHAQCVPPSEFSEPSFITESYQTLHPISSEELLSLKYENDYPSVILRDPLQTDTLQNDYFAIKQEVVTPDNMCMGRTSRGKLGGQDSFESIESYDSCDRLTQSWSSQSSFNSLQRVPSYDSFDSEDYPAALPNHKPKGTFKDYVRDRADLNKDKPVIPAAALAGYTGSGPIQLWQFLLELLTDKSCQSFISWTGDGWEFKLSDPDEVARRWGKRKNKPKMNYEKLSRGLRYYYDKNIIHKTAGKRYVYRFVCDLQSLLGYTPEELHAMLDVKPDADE
Technique: protein-binding microarray
Form: double-stranded DNA, one strand shown
Sample: in vitro
Tested at: not given
Setting: k-mer, scored over probes, only values ≥0.25
Direction: higher = stronger binding
`CCTCTCCC` gave an E-score of 0.28.
`CGCGTCCG` has an E-score of 0.413.
The E-score of `AGGCAGGA` is reported as 0.347.
`AAGGAACT` has an E-score of 0.254.
With `ACGTCCGC` the E-score was 0.434.
`CATGCGGA` gave an E-score of 0.261.
`CTAGGAAG` has an E-score of 0.317.
With `ACGGAAGC` the E-score was 0.447.

Study 2
Target: OGT, full length, His-tagged (human)
Technique: phage display, sequencing
Sample: in vitro
Tested at: 1 µg OGT
Setting: single substitutions, 15-mer displayed peptide, unchanged parent 19.6
Baseline: input library
Direction: higher = stronger binding
Starting sequence: peptide; TAPFYPPAYQIQVFK
With `F14Y` the fold enrichment was 16.1 fold.
For `T1G`, the fold enrichment was 13.1 fold.
`P6A` gave a fold enrichment of 2.2 fold.
The fold enrichment of `Y5W` is reported as 3.19 fold.
`K15I` has a fold enrichment of 8.07 fold.
`V13R` has a fold enrichment of 1.29 fold.
`I11R` gave a fold enrichment of 0.483 fold.
For `I11A`, the fold enrichment was 0.571 fold.

Study 3
Target: Interferon regulatory factor 5, full length, phosphomimetic (IRF5, Homo sapiens, UniProt Q13568-2, residues 1-514, S451D/S453D/S456D/S462D)
Technique: protein-binding microarray
Form: double-stranded DNA, one strand shown
Sample: in vitro
Tested at: 940 nM top
Setting: 60-bp whole probe
Together with: salmon DNA 0.4 mg/ml
Baseline: random background probes
Direction: higher = stronger binding
All sequences stand within: GCCTAGCAC … GTCTTGATTCGCTTGACGCTGCTG
For `GACGATTTCGTGACTGGAGACGTGCTA`, “fitted relative affinity” read -0.0834 z-score.
`TTAAAACTGAGTCTCGATTAGTGCTAG`: “fitted relative affinity” 2.85 z-score.
`TCAGTTTTAAATTCTAAACTGTGCTAG`: “fitted relative affinity” 0.15 z-score.
For `CAGGTTCTCTTTTATTTTTTGTGCTAG`, “fitted relative affinity” read 1.86 z-score.
`GACGATATCGGGTATCAAGACGTGCTA` — result for “fitted relative affinity”: 0.056 z-score.
`GACGGTTTCCTTCTTCTGACGTGCTAG`: “fitted relative affinity” 2.02 z-score.
For `GACGATATCGGGTATCGCGACGTGCTA`, “fitted relative affinity” read -0.147 z-score.
For `TTAGAACTGGGGTTTCGATCAGTGCTA`, “fitted relative affinity” read 4.73 z-score.

Mixed results
Starting sequence: PafA, mature enzyme, eGFP fusion (Elizabethkingia meningoseptica, UniProt Q9KJX5); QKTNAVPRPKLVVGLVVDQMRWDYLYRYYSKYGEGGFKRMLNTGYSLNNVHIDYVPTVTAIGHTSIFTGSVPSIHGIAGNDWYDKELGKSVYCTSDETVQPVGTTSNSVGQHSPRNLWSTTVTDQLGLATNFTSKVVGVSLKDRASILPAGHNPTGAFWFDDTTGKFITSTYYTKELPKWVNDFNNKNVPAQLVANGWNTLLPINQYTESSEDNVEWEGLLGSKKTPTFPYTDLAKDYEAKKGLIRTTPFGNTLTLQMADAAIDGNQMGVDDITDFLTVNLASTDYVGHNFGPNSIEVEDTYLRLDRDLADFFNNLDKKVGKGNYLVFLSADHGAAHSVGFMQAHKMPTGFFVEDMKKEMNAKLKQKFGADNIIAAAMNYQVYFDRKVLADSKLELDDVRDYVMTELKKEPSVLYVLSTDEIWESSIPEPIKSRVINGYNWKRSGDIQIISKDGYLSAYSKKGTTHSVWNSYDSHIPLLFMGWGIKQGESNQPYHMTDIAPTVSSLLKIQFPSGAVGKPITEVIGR
`N361G`: “oxyanion analog dissociation constant” 2340 nM (tungstate, free oxyanion; microfluidic competitive inhibition; in vitro, cell-free expressed; not given, derived from inhibition constants, unchanged parent 2230 nM; lower = stronger binding).

For quick reference, copied from above (study 2):
The fold enrichment of `Y5W` is reported as 3.19 fold.
`I11R` gave a fold enrichment of 0.483 fold.
`P6A` gave a fold enrichment of 2.2 fold.
For `I11A`, the fold enrichment was 0.571 fold.
